Experimental data gathered from unrelated publications.
Each line is one published result; not all experiments were run side by side.
Target: Serine/threonine-protein kinase Nek3 (NEK3, Homo sapiens, UniProt P51956)
Residues used in one study (P51956 1-506): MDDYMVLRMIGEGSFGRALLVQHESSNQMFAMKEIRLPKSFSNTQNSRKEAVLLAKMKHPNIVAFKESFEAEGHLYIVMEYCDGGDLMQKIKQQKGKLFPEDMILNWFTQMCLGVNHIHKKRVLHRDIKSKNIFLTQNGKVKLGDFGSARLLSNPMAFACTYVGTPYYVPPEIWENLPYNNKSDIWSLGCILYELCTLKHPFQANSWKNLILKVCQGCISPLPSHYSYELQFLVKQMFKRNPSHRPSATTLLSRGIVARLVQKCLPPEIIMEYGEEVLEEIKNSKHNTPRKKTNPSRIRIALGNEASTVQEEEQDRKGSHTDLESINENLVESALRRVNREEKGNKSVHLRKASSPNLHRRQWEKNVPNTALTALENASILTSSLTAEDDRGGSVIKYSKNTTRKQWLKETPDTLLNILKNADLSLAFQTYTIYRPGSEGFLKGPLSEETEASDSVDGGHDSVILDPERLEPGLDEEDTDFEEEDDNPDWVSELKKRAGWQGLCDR

SMILES | test | system | conditions | how to read | measurement | value
COc1c(OCCCN2CCOCC2)ccc2c1N=C(NC(=O)c1cnc(N)nc1)N1CCN=C21 | kinase activity, inhibitor | – | 1 µM | relative to: untreated control | remaining activity | 105%
CN1CC[C@@H](COc2cnc(C#N)cc2-c2ccn3nc(NC(=O)C4CC4)cc3c2)C1 | enzyme activity, inhibitor | – | 1 µM | – | inhibition | -27%
C=CC(=O)Nc1cc(-c2nn(C3CCN(CCNC(=O)[C@H](C)CCC45CC6CC(CC(C6)C4)C5)CC3)c3ncnc(N)c23)ccc1Oc1ccccc1 | inhibitor, KiNativ profiling | biochemical | 2 µM | – | inhibition | 15.6%
C=CC(=O)N1CCCC(n2c(=O)c3ncccc3n(Cc3ccc(Oc4ccccc4)cc3)c2=O)C1 (centres unmarked) | cell-free assay, competition with immobilised ligand | – | 1 µM | – | remaining binding | 65%
Cc1ccc(-c2c(/C=C(\C#N)C(=O)NC(C)C)n(CCCO)c3ncnc(N)c23)cc1 | cell-free assay, competition with immobilised ligand | – | 1 µM | – | remaining binding | 73%
CNC1C[S+]2CC[S+]3CC[S+](C1)[Ru-4]321([N]=C=S)[n]2c3ccc(OC)cc3c3c4c(c5cc(F)c[n+]1c5c32)C(=O)NC4=O (centres unmarked) | KinomeScan | – | 0.1 µM | relative to: untreated | remaining binding | 79%
CCn1cc(C(=O)O)c(=O)c2c(N)c(F)c(NC3CCCCC3)cc21 | kinase activity | – | 0.1 µM, together with: ATP at Km | – | inhibition | 4.8%
C=CC(=O)N1CCc2ccc(-n3c(=O)ccc4cnc5ccc(-c6cnn(C)c6)cc5c43)cc21 | KINOMEscan | – | 1 µM | relative to: DMSO control | remaining binding | 82%
Nc1ncc2c(n1)-c1c([nH]c3ccc(C4=CCOCC4)cc13)CCC2 | binding, competition with immobilised ligand | – | 1 µM | – | remaining binding | 82%
CNC(=O)C1CCN(c2cc(C)c(F)cc2NC(=O)c2ccc(-c3cc(O)ccc3C)c(C)c2)CC1 | binding, competition with immobilised ligand | – | 1 µM | – | remaining binding | 88%
O=C(Cc1ccc(OCc2ccccc2)cc1)NC1(C(=O)O)CCN(C(=O)c2ccc(-c3cccc(Cl)c3)cc2)CC1 | enzyme activity, inhibitor | – | 10 µM | – | activity vs control | 77%
NC(=O)[C@@H](O)C[C@H]1CCc2sc3ncnc(O[C@H]4CC[C@H](N5CCOCC5)CC4)c3c21 | enzyme activity, inhibitor | – | 10 µM | – | inhibition | -21%
Cc1cnc2nc1Nc1cccc(c1)COC/C=C/COCc1cc(ccc1OCCN1CCOCC1)N2 | binding | – | 0.1 µM | – | remaining binding | 89%
COc1cc(Nc2nc(C)cc(-c3cnn4nc(OC)ccc34)n2)cc(C(F)(F)F)c1 | inhibitor | – | 1 µM | relative to: control | remaining activity | 92%

Repeated from above:
SMILES | test | system | conditions | how to read | measurement | value
C=CC(=O)N1CCCC(n2c(=O)c3ncccc3n(Cc3ccc(Oc4ccccc4)cc3)c2=O)C1 (centres unmarked) | cell-free assay, competition with immobilised ligand | – | 1 µM | – | remaining binding | 65%
